Published values gathered from unrelated publications.
Numbered parts are unrelated; each lists some results of a single study. Positions count from the first letter of the parent shown.

Set 1 — technique: protein-binding microarray; molecule type: hairpin DNA; sample: in vitro; concentration: not given; baseline: not given; reading: higher = stronger binding; endpoint: median fluorescence; all sequences stand within: GAGGCCAG … CTGGCCTCACACTC
Target: Protein C-ets-1, full length (ETS1, Homo sapiens, UniProt P14921, residues 1-441)
Chain of UniProt P14921 (whole entry, looked up): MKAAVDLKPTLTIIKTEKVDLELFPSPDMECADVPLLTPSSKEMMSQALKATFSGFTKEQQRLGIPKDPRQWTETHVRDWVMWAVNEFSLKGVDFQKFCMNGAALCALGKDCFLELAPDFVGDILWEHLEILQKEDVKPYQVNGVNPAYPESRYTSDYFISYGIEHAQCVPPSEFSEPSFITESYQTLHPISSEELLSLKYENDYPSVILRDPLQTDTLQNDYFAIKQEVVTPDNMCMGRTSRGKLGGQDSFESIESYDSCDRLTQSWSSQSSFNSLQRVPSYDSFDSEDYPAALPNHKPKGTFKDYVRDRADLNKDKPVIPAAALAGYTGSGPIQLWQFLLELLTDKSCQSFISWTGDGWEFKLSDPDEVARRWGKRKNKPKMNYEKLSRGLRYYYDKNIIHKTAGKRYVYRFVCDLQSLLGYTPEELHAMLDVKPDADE
Notes: whole hairpin DNA, median over replicate spots
TCGGAAGTTGCCTCCTGGCAACTTCCGA (5mC at 30): 4950 a.u.
CCGGAATTTGCCTCCTGGCAAATTCCGG: 1330 a.u.
CCCGAAGTTGCCTCCTGGCAACTTCGGG (5mC at 11 33): 546 a.u.
TCGGAAGTCGCCTCCTGGCGACTTCCGA: 3700 a.u.
TCGGAAGGTGCCTCCTGGCACCTTCCGA: 887 a.u.
CCGTAAGTTGCCTCCTGGCAACTTACGG: 557 a.u.
TCGGAAGTTGCCTCCTGGCAACTTCCGA (5mC at 10 34): 646 a.u.
CCGGAAGGTGCCTCCTGGCACCTTCCGG (5mC at 29): 2750 a.u.

Set 2 — technique: universal PBM; molecule type: double-stranded DNA, one strand shown; sample: in vitro; concentration: 600 nM; reading: higher = stronger binding; endpoint: E-score
Target: Sal-like protein 4, full length isoform A (SALL4, Homo sapiens, UniProt Q9UJQ4, residues 1-1053)
Chain of UniProt Q9UJQ4 (whole entry, looked up): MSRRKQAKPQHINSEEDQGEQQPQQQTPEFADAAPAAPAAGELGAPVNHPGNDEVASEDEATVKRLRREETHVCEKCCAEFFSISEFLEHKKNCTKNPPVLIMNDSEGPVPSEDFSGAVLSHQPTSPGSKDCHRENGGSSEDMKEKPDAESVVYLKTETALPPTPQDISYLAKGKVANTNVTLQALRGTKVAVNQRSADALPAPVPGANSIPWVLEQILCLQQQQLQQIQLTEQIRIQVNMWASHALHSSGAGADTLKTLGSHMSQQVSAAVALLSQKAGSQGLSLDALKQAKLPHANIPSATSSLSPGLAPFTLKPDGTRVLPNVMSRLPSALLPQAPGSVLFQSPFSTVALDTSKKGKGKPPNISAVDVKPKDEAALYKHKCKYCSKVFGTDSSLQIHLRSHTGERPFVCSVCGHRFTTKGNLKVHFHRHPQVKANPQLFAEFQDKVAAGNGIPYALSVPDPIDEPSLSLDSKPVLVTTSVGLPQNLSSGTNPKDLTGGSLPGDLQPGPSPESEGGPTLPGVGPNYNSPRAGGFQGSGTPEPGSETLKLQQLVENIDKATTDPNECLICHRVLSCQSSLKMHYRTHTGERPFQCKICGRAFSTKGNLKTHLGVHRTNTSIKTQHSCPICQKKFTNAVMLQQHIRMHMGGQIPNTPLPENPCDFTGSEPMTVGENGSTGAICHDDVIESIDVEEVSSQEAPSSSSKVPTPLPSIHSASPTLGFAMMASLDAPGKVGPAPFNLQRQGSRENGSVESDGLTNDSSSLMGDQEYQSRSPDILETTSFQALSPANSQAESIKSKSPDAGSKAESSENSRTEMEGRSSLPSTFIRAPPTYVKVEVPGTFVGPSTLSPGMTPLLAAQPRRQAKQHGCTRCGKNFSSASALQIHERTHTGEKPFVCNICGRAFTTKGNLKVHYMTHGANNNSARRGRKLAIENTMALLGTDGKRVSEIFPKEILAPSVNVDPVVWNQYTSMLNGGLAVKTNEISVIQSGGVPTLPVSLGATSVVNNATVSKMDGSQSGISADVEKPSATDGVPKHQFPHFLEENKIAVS
Notes: 8-mer, flanks averaged, mean of replicates
AACAACAC: 0.152
TCCATCAA: 0.263
ATGCGGTC: 0.0109
CTAGTGAA: -0.0318
AGCATCTA: 0.165
AGCATGAT: 0.128
TCAGATGA: 0.147
AAATAGGA: 0.182

Further values, each from its own experiment
P1: PafA, mature enzyme, eGFP fusion (Elizabethkingia meningoseptica, UniProt Q9KJX5); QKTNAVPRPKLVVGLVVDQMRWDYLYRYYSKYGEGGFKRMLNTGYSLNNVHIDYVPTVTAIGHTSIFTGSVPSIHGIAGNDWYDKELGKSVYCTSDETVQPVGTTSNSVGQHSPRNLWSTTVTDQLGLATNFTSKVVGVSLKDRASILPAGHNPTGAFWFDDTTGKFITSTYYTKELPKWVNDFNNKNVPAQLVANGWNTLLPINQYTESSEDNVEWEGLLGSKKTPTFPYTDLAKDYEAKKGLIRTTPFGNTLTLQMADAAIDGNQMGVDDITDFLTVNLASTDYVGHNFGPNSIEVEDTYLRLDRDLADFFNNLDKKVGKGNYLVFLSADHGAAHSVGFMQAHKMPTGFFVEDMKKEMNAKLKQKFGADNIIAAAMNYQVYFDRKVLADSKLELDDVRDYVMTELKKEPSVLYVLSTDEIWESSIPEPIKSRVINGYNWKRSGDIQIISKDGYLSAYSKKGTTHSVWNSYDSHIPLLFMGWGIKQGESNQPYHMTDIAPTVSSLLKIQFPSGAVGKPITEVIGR
PDCD5 (Homo sapiens, UniProt O14737) — cross-linked residues (CCT4 (Homo sapiens, UniProt P50991); cross-linking MS; cell fractions; with: DSSO): K110 to K79
P1 K236G — oxyanion analog dissociation constant (vanadate, free oxyanion; microfluidic competitive inhibition; in vitro, cell-free expressed; not given, derived from inhibition constants, unchanged parent 676 nM; lower = stronger binding): 583 nM
CCT3 (Homo sapiens, UniProt P49368) — cross-linked residues (CCT8 (Homo sapiens, UniProt P50990); cross-linking MS; cell fractions; with: DMTMM): K222 to D548
NDUFB3 (Homo sapiens, UniProt O43676) — cross-linked residues (PARP1 (Homo sapiens, UniProt P09874); cross-linking MS; cell fractions; with: DSSO): K39 to K262

Excerpt of the above (set 1):
TCGGAAGTCGCCTCCTGGCGACTTCCGA: 3700 a.u.
CCCGAAGTTGCCTCCTGGCAACTTCGGG (5mC at 11 33): 546 a.u.
CCGTAAGTTGCCTCCTGGCAACTTACGG: 557 a.u.
